Results collected from several papers.
Several values in a cell are separate wells, animals, samples, runs or records. ± gives the spread as reported.

Compound | cell line | test | system | conditions | scale | quantity | value
CC[C@H](C)[C@H](NC(=O)[C@H](Cc1ccc(O)cc1)NC(=O)[C@H](CCCCN)NC(=O)[C@H](CCC(N)=O)NC(=O)[C@@H](NC(=O)[C@H](Cc1c[nH]c2ccccc12)NC(=O)[C@H](CCCCN)NC(=O)[C@H](CCCCN)NC(=O)[C@H](CCCNC(=N)N)NC(=O)[C@@H]1CCCN1C(=O)[C@H](Cc1c[nH]cn1)NC(=O)[C@@H](NC(=O)[C@H](CS)NC(=O)[C@@H](NC(=O)[C@H](CCCCN)NC(=O)[C@H](CCCCN)NC(=O)CNC(=O)[C@H](CCCNC(=N)N)NC(=O)[C@H](CCCCN)NC(=O)[C@@H](NC(=O)[C@@H](NC(=O)[C@H](Cc1ccccc1)NC(=O)[C@@H](NC(=O)[C@@H](NC(=O)[C@H](C)NC(=O)[C@@H](N)CCCNC(=N)N)C(C)C)[C@@H](C)CC)[C@@H](C)O)[C@@H](C)O)C(C)C)[C@@H](C)O)C(C)C)C(=O)N[C@@H](CO)C(=O)N[C@@H](CC(C)C)C(=O)N[C@@H](CC(C)C)C(=O)N[C@@H](CCCCN)C(=O)N[C@H](C(=O)N1CCC[C@H]1C(=O)N[C@@H](CCCCN)C(=O)N[C@@H](CCC(N)=O)C(=O)N[C@@H](CC(C)C)C(=O)O)[C@@H](C)O | HaCaT | cell viability, MTT | – | 24 h | – | CC50 | 72.5 µM
Oc1ccc(C(c2ccc(O)cc2)(C(F)(F)F)C(F)(F)F)cc1 | HepG2 spheroids, dissociated | annexin V-FITC/PI flow cytometry | – | 0.1 µM, 24 h | – | early apoptotic cells | 17.4 ± 7.94%
CC[C@H](C)[C@H](N)C(=O)N[C@@H](CCCNC(=N)N)C(=O)N[C@H](C(=O)N[C@@H](Cc1c[nH]c2ccccc12)C(=O)N[C@@H](CCCCN)C(=O)N[C@@H](CCCCN)C(=O)N[C@@H](Cc1ccccc1)C(=O)N[C@H](C(=O)N[C@@H](CCCNC(=N)N)C(=O)N[C@@H](CCCCN)C(=O)N[C@@H](CCSC)C(=O)N[C@@H](CCCCN)C(=O)N[C@@H](C)C(=O)N[C@H](C(=O)N[C@@H](Cc1ccc(O)cc1)C(=O)N[C@@H](Cc1c[nH]cn1)C(N)=O)[C@@H](C)CC)C(C)C)C(C)C | rat erythrocytes | – | – | 200 µM, 60 min, 37 °C | – | hemolysis | 0.3 ± 0.1%
CCc1cccc(C)c1N(C(=O)CCl)C(C)COC (centres unmarked) | MCF7 AREc32 cells | cell confluency, IncuCyte imaging | – | 24 h, nominal concentration | – | IC10 | 135 µM
COc1ccc2c(c1OC)C(=O)c1c(cc(C)c(O)c1OC)C2=O | HepaRG co-cultured with HK-2 | MTT | – | 16.67 µM, 48 h | relative to: untreated control | cell viability | 87.7 ± 4.5%
O=c1ccc2ccccc2o1 | NHEK | oxygen consumption rate, Seahorse | – | 24 h | – | point of departure | 382 µM
CC[C@H](C)[C@H](NC(=O)[C@H](CCCCN)NC(=O)[C@H](CCC(N)=O)NC(=O)[C@@H](NC(=O)[C@@H](NC(=O)[C@H](CCCNC(=N)N)NC(=O)[C@H](CCCCN)NC(=O)[C@H](Cc1ccccc1)NC(=O)CN)[C@@H](C)CC)C(C)C)C(=O)N[C@@H](CCCNC(=N)N)C(=O)N[C@@H](CC(=O)O)C(=O)N[C@@H](Cc1ccccc1)C(=O)N[C@@H](CC(C)C)C(=O)N[C@@H](CCCNC(=N)N)C(=O)N[C@@H](CC(N)=O)C(=O)N[C@@H](CC(C)C)C(=O)N[C@H](C(N)=O)C(C)C | HEK293 | cell viability, MTS | – | serum-free | – | LC50 | 13 µM
CC(=O)OC[C@H]1O[C@@H](Oc2cc(O)cc3cc4oc(C)cc(=O)c4c(O)c23)[C@H](O)[C@@H](O)[C@@H]1O | HK-2 co-cultured with HepaRG | MTT | – | 133.33 µM, 24 h | relative to: untreated control | cell viability | 129 ± 7.26%
CC(C)(c1ccc(O)cc1)c1ccc(O)cc1 | HepG2 spheroids | annexin V-FITC/PI flow cytometry | – | 0.1 µM, 24 h | – | necrotic cells | 16.8 ± 6.24%
N#C[C@H](C[C@@H]1CCCNC1=O)NC(=O)[C@H](CC1CC1)NC(=O)c1cc2cccc(Cl)c2[nH]1 | cryopreserved human hepatocytes | measured: CYP2C19 | – | 10 µM, 72 h | relative to: vehicle | mRNA level | ≤ 3.3 fold
O=C(O)C(F)(F)C(F)(F)C(F)(F)C(F)(F)C(F)(F)F | hTERT-RPTEC-OAT1 | LDH release | culture medium | concentration not given, 24 h, 96-well plate | – | LDH activity in medium | 4.64 mU/mL
CC[C@H](C)[C@H](NC(=O)[C@H](C)NC(=O)[C@H](CO)NC(=O)[C@@H](NC(=O)[C@H](CCCCN)NC(=O)[C@H](CCSC)NC(=O)[C@H](CC(C)C)NC(=O)[C@H](CO)NC(=O)[C@H](CC(C)C)NC(=O)[C@H](CCCNC(=N)N)NC(=O)[C@H](Cc1c[nH]cn1)NC(=O)[C@@H](NC(=O)[C@H](CC(C)C)NC(=O)[C@H](CC(N)=O)NC(=O)[C@H](Cc1ccccc1)NC(=O)CN)[C@@H](C)CC)[C@@H](C)O)C(=O)N[C@@H](CCCCN)C(=O)N[C@@H](CCCCN)C(=O)N[C@H](C(=O)N[C@@H](CCCNC(=N)N)C(=O)N[C@@H](CC(N)=O)C(=O)N1CCC[C@H]1C(=O)N[C@@H](CCCCN)C(=O)NCC(=O)N1CCC[C@H]1C(=O)N[C@@H](CC(C)C)C(=O)N[C@H](C(=O)N[C@@H](CC(C)C)C(=O)N[C@@H](CCCNC(=N)N)C(=O)N[C@@H](CC(C)C)C(=O)NCC(=O)N[C@@H](C)C(=O)N[C@@H](C)C(=O)N1CCC[C@H]1C(=O)N[C@H](C(=O)N[C@H](C(=O)N[C@@H](CCC(N)=O)C(=O)N1CCC[C@H]1C(=O)N[C@H](C(=O)N[C@@H](CCCNC(=N)N)C(=O)N[C@@H](CCCNC(=N)N)C(=O)N[C@H](C(=O)N[C@@H](Cc1ccccc1)C(=O)N1CCC[C@H]1C(=O)N[C@@H](CCCNC(=N)N)C(=O)NCC(=O)N[C@@H](CC(C)C)C(=O)N1CCC[C@H]1C(=O)O)C(C)C)[C@@H](C)O)[C@@H](C)O)C(C)C)[C@@H](C)CC)[C@@H](C)CC | HaCaT | cell viability, MTT | – | – | – | CC50 | 149 µM
CC[C@H](C)[C@H](NC(=O)[C@H](CO)NC(=O)CNC(=O)[C@H](CCCCN)NC(=O)[C@@H](NC(=O)[C@H](CC(N)=O)NC(=O)[C@H](Cc1ccccc1)NC(=O)[C@H](CC(N)=O)NC(=O)[C@@H](NC(=O)[C@H](CCCNC(=N)N)NC(=O)[C@@H]1CCCN1C(=O)[C@H](CCCNC(=N)N)NC(=O)[C@@H](NC(=O)[C@H](CCCNC(=N)N)NC(=O)[C@H](CCCNC(=N)N)NC(=O)[C@@H](NC(=O)[C@H](CCCNC(=N)N)NC(=O)[C@H](CO)NC(=O)[C@H](CC(C)C)NC(=O)[C@H](Cc1ccccc1)NC(=O)[C@H](CCCNC(=N)N)NC(=O)CNC(=O)[C@H](Cc1ccccc1)NC(=O)[C@H](CCCNC(=N)N)NC(=O)CNC(=O)[C@H](CCCNC(=N)N)NC(=O)[C@H](CCC(N)=O)NC(=O)[C@@H](NC(=O)[C@@H](N)CC(C)C)C(C)C)[C@@H](C)CC)[C@@H](C)CC)[C@@H](C)CC)[C@@H](C)CC)C(=O)O | rat erythrocytes | haemolysis | – | 1 h, 37 °C, 2% erythrocytes in PBS | – | HC50 | 3.11 log10 µg/mL
O=C(Nc1cccc(OS(=O)(=O)c2ccc(Cl)cc2)c1)c1ccc2ncccc2c1 | HEK-293T | MTT | – | 100 µM, 24 h | relative to: untreated | viability | > 75%
CC(=O)NCC(=O)N[C@@H](Cc1ccccc1)C(=O)N[C@H](C=O)Cc1c[nH]cn1 | HEL | cell morphology | – | – | – | minimum cytotoxic concentration | > 100 µM
CC[C@H](C)[C@H](NC(=O)[C@H](C)NC(=O)[C@H](CO)NC(=O)[C@@H](NC(=O)[C@H](CCCCN)NC(=O)[C@H](CCSC)NC(=O)[C@H](CC(C)C)NC(=O)[C@H](CO)NC(=O)[C@H](CC(C)C)NC(=O)[C@@H](N)CCCNC(=N)N)[C@@H](C)O)C(=O)N[C@@H](CCCCN)C(=O)N[C@@H](CCCCN)C(=O)N[C@H](C(=O)N[C@@H](CCCNC(=N)N)C(=O)N[C@@H](CC(N)=O)C(=O)N1CCC[C@H]1C(=O)N[C@@H](CCCCN)C(=O)NCC(=O)N1CCC[C@H]1C(=O)N[C@@H](CC(C)C)C(=O)N[C@H](C(=O)N[C@@H](CC(C)C)C(=O)N[C@@H](CCCNC(=N)N)C(=O)N[C@@H](CC(C)C)C(=O)NCC(=O)N[C@@H](C)C(=O)N[C@@H](C)C(=O)N1CCC[C@H]1C(=O)N[C@H](C(=O)N[C@H](C(=O)N[C@@H](CCC(N)=O)C(=O)N1CCC[C@H]1C(=O)N[C@H](C(=O)N[C@@H](CCCNC(=N)N)C(=O)N[C@@H](CCCNC(=N)N)C(=O)N[C@H](C(=O)N[C@@H](Cc1ccccc1)C(=O)N1CCC[C@H]1C(=O)N[C@@H](CCCNC(=N)N)C(=O)O)C(C)C)[C@@H](C)O)[C@@H](C)O)C(C)C)[C@@H](C)CC)[C@@H](C)CC | HaCaT | cell viability, MTT | – | – | – | CC50 | 220 µM
CN(CCC(Oc1ccc(C(F)(F)F)cc1)c1ccccc1)N=O (centres unmarked) | TK6 expressing CYP2B6 | micronucleus induction | – | 24 h, without S9 | – | LOAEL | < 1 µM
N=C(N)NCCC[C@H](NC(=O)[C@H](CCCNC(=N)N)NC(=O)[C@H](CCCNC(=N)N)NC(=O)[C@H](CCC(N)=O)NC(=O)[C@H](CCCNC(=N)N)NC(=O)[C@H](CCCNC(=N)N)NC(=O)[C@H](CCCCN)NC(=O)[C@H](CCCCN)NC(=O)[C@H](CCCNC(=N)N)NC(=O)CNC(=O)[C@H](Cc1ccc(O)cc1)NC(=O)CNC(=O)CNC(=O)CNC(=O)c1ccc2c(c1)C(=O)OC21c2ccc(O)cc2Oc2cc(O)ccc21)C(N)=O | hCMEC/D3 monolayers | BBB permeability, Transwell, measured: CF-labelled compound | EGM-2 medium | concentration not given, 3 h, apical to basal | relative to: fluorescence added apically | transport ratio | 13.9%
O=C(O)C(F)(F)C(F)(F)C(F)(F)C(F)(F)C(F)(F)C(F)(F)C(F)(F)C(F)(F)C(F)(F)F | hTERT-RPTEC-OAT1 | – | – | concentration not given, Transwell, apical-to-basolateral addition | – | LDH release | 15.1 mU/mL and 17.7 mU/mL and 15.5 mU/mL and 15.9 mU/mL
O=C1c2ccccc2C(=O)c2ccccc21 | HK-2 co-cultured with HepaRG | MTT | – | 33.33 µM, 24 h | relative to: untreated control | viability | 131 ± 25.4%
O=S(=O)(O)C(F)(F)C(F)(F)C(F)(F)C(F)(F)C(F)(F)C(F)(F)C(F)(F)C(F)(F)F | hTERT-RPTEC-OAT1 | LDH release | culture medium | concentration not given, 24 h, 96-well plate | – | LDH activity in medium | 4.77 mU/mL
Cc1cc2c(c(O)c1O)C(=O)c1c(O)cc(O)cc1C2=O | HepaRG co-cultured with HK-2 | MTT | – | 266.67 µM, 48 h | relative to: untreated control | cell viability | 64 ± 14.2%
C[C@@H](O)[C@H](NC(=O)CNC(=O)CNC(=O)CNC(=O)c1ccc2c(c1)C(=O)OC21c2ccc(O)cc2Oc2cc(O)ccc21)C(=O)N[C@@H](Cc1ccccc1)C(=O)N[C@@H](Cc1ccccc1)C(=O)N[C@@H](Cc1ccc(O)cc1)C(=O)NCC(=O)NCC(=O)N[C@@H](CO)C(=O)N[C@@H](CCCNC(=N)N)C(=O)NCC(=O)N[C@@H](CCCCN)C(=O)N[C@@H](CCCNC(=N)N)C(=O)N[C@@H](CC(N)=O)C(=O)N[C@@H](CC(N)=O)C(=O)N[C@@H](Cc1ccccc1)C(=O)N[C@@H](CCCCN)C(=O)N[C@H](C(=O)N[C@@H](CCC(=O)O)C(=O)N[C@@H](CCC(=O)O)C(=O)N[C@@H](Cc1ccc(O)cc1)C(N)=O)[C@@H](C)O | hCMEC/D3 monolayers | BBB permeability, Transwell, measured: CF-labelled compound | EGM-2 medium | concentration not given, 3 h, apical to basal | relative to: fluorescence added apically | transport ratio | 15.3%
CCCCc1nc(N)[nH]c(=O)c1Br | CRFK | cytotoxicity, MTS | – | – | – | CC50 | > 100 µM
CC1=C(O)C(=O)C=C2C1=CC=C1[C@@]2(C)CC[C@@]2(C)[C@@H]3C[C@](C)(C(=O)O)CC[C@]3(C)CC[C@]12C | COS-7 | – | – | 3 µM, 24 h, 0.1% DMSO, unit not given | relative to: vehicle control | necrotic cells | 0.34 ± 0.24
O=C(Nc1ccc([N+](=O)[O-])cc1Cl)c1cc(Cl)ccc1O | MRC-5, mock-infected | nuclei count | – | 96 h | – | LD50 | 1840 nM

Repeated from above:
Compound | cell line | test | system | conditions | scale | quantity | value
C[C@@H](O)[C@H](NC(=O)CNC(=O)CNC(=O)CNC(=O)c1ccc2c(c1)C(=O)OC21c2ccc(O)cc2Oc2cc(O)ccc21)C(=O)N[C@@H](Cc1ccccc1)C(=O)N[C@@H](Cc1ccccc1)C(=O)N[C@@H](Cc1ccc(O)cc1)C(=O)NCC(=O)NCC(=O)N[C@@H](CO)C(=O)N[C@@H](CCCNC(=N)N)C(=O)NCC(=O)N[C@@H](CCCCN)C(=O)N[C@@H](CCCNC(=N)N)C(=O)N[C@@H](CC(N)=O)C(=O)N[C@@H](CC(N)=O)C(=O)N[C@@H](Cc1ccccc1)C(=O)N[C@@H](CCCCN)C(=O)N[C@H](C(=O)N[C@@H](CCC(=O)O)C(=O)N[C@@H](CCC(=O)O)C(=O)N[C@@H](Cc1ccc(O)cc1)C(N)=O)[C@@H](C)O | hCMEC/D3 monolayers | BBB permeability, Transwell, measured: CF-labelled compound | EGM-2 medium | concentration not given, 3 h, apical to basal | relative to: fluorescence added apically | transport ratio | 15.3%
